Measured values of several laboratories.
Each line is one published result; not all experiments were run side by side. “And” joins repeats or separate records; there may be more than shown. Numbers after ± are the reported error.

CC1=CC(=O)C(C(C)C)=CC1=O
activity score (human iPSC-derived cardiomyocytes; MyBP-C/MYH ratio, plate-normalised SD score; concentration not given, primary screen; direction not given): 5.5

Cc1ccc(C=NNC(=O)C2CC(=O)N(c3ccc(F)cc3F)C2)cc1 (stereo not shown)
viability reduction, up to (A-375 and fibroblast spheroids; MTT; 10 µM, day 8): 30% and 31.9%

COc1cnc2cccc(N3CCc4c(cc(Cn5ccnc5C)cc4-c4cn(C)nc4C(F)(F)F)C3=O)c2c1
EC50 (LS-411N; cell growth, inhibitor; 120 h): > 30 µM

Cc1cccc(-c2[nH]c(CNc3ccccc3F)nc2-c2ccc3ncnn3c2)n1
surface marker level (RPMI-8226; flow cytometry, measured: CD227; concentration not given; relative to: comparator compound alone): 46.6%

O=c1[nH]nc(OCCCc2ccc(Cl)cc2)c(NCc2cccnc2)c1Br
normalized enrichment score (HEK-293T; RNA-seq GSEA, measured: HALLMARK_PROTEIN_SECRETION; concentration not given; direction not given): 1.75

COc1cc2ncnc(Nc3ccc(Oc4ccccc4)c(C)c3C)c2cc1OC
viability (MeWo; cell growth, resazurin; 1 µM, 72 h, with: 0 nM trametinib; relative to: DMSO): 92.2%

COc1ccc(-n2nc(C(C)=O)s/c2=N\N=C(/C)c2ccc(NC(=O)c3ccc(Cl)cc3)cc2)cc1
toxicity (MCF7; 5 µM): 96.3%

Cc1n[nH]c2nc(-c3ccc(Cl)cc3)c3c(NC(=O)c4ccccc4)nnc-3n12
mean growth percent (NCI60 cell panel; SRB; 10 µM): 103%

Cc1ncsc1-c1ccc([C@H](C)NC(=O)[C@@H]2C[C@@H](O)CN2C(=O)[C@@H](NC(=O)CCCCCCCCC(=O)N(CCO)CCCOc2ccc3c(Nc4cc(CC(=O)Nc5cccc(F)c5)[nH]n4)ncnc3c2)C(C)(C)C)cc1
protein level (PC-3 and HPAF-II cells; western blot, measured: MAPK; 1 µM, 24 h): no effect

C[C@H](CCC(=O)O)[C@H]1CC[C@H]2[C@@H]3CC[C@@H]4C[C@H](O)CC[C@]4(C)[C@H]3C[C@H](O)[C@]12C
β-catenin expression (HIEC; concentration not given, with: lithocholic acid; relative to: lithocholic acid alone): decreased

CN(c1ccccc1)S(=O)(=O)c1nnc(NC(=O)c2ccccc2)s1
efficacy (C127 LDR GFP reporter cells; silenced GFP reporter induction, activator, high-content imaging; retest, two-run mean): 180%

COc1ccc(C[C@H](N)C(=O)N[C@H]2[C@@H](O)[C@H](n3cnc4c(N(C)C)ncnc43)O[C@@H]2CO)cc1
activity score (human iPSC-derived cardiomyocytes; MyBP-C/MYH ratio, plate-normalised SD score; concentration not given, primary screen; direction not given): 4.2

Cc1cc(C)n(-c2nc(-c3ccc(Cl)cc3)c3c(NC(=O)c4ccccc4)nnc-3[nH]2)n1
mean growth percent (NCI60 cell panel; SRB; 10 µM): 92.1%

C=CC1=C(C)c2cc3[n-]c(cc4nc(cc5[n-]c(cc1n2)c(C)c5C=C)C(C)=C4CCC(=O)O)c(CCC(=O)O)c3C.[Zn+2]
fold change (SH-SY5Y; RNA-seq, measured: HSPB7 mRNA; 5 µM, 5 h; relative to: untreated cells): 1.5

C[C@H](NC(=O)C(=O)Nc1ccccc1C(C)(C)C)C(=O)N[C@@H](CC(=O)O)C(=O)COc1c(F)c(F)cc(F)c1F
cell lysis (THP-1 cells, LPS-primed; pyroptosis, LDH release; 25 µM, LPS 1 µg/mL, 4 h, with: nigericin 5 µM, 2 h): 39.4% and 42.3%

CCn1cc(-c2cc(Cn3ccoc3=N)cc3c2CCN([C@@H](C)c2cc(OC)ccn2)C3=O)c(C(F)(F)F)n1
EC50 (JHOS2; cell growth; 120 h): > 30 µM

S=C(Nc1ccccc1)c1ccccn1
efficacy (C127 LDR GFP reporter cells; silenced GFP reporter induction, activator, high-content imaging; retest, two-run mean): 113%

c1ccc2[nH]ccc2c1
mRNA level, LS mean (HCT-8; RNA-seq, measured: CREBRF; concentration not given): 17 counts per million

NCCOc1cc(NC(=O)c2cccc(C(=O)Nc3cc(OCCN)c4ccccc4n3)n2)nc2ccccc12
selectivity ratio (U2OS; cell viability, CellTiter-Glo; 72 h; relative to: IC50 U2OS over WI-38): 1.7

Cn1cc(Nc2nccc(-c3ccc4c(c3)CN(C3COC3)CC[C@H]4NC(=O)c3cn(C(C)(C)C)nn3)n2)cn1
number of unchanged genes (human B cells; 100 nM, 64 h, stimulation-downregulated genes, with: CpG ODN2006): 54

Nc1ncnc2c1ncn2[C@@H]1O[C@H](CO)[C@@H](O)[C@H]1O
log2 fold change (activated human T cells; measured: UDP; 50 µM; relative to: DMSO): -3.9

Clc1nc(NCc2ccco2)c2[nH]cnc2n1
ΔPSI (FD iPSC-derived cardiomyocytes; alternative splicing, RNA-seq, measured: FAM184A exon chr6(-):118974427-118974574; unit not given; relative to: DMSO minus compound): -0.307

O=C(/C=C/C=C/C=C/C1CCCCC1)NC1=C[C@@](O)(/C=C/C=C/C=C/C(=O)NC2=C(O)CCC2=O)[C@@H]2O[C@@H]2C1=O
GI50 (NCI-H838; cell growth, CellTiter-Glo; 78 h): 21.8 µM

CC/C(=N\NC(=O)NCc1cccc(O)c1)c1ccc(O)c(C)c1O
protein level (SK-OV-3; Western blot, measured: TAZ; 10 µM, 1 h, 2D culture, unit not given; relative to: β-actin): 1.33 ± 0.4

Cn1cc(-c2ccc(-c3cncc(Cl)c3N3CCC4(CCNC4=O)CC3)cc2)cn1
fold change in expression (COLO 205; microarray, measured: PLA2G2A; concentration not given, 2 h, gene set PLA2(hGIIA); relative to: untreated cells): -4.85

N=C(N)c1ccc(OCCCCCOc2ccc(C(=N)N)cc2)cc1
activity score (human iPSC-derived cardiomyocytes; MyBP-C/MYH ratio, plate-normalised SD score; concentration not given, primary screen; direction not given): 3.7

CCc1c(-c2ccccc2)c(-c2ccccc2)nn1-c1ccccc1-c1cccc(OCC(=O)O)c1
osteoclast number (mouse bone marrow macrophages; TRAP staining; 10 µM, 4 days, with: M-CSF, RANKL, FABP4 25 ng/mL): 70 and 112 and 101 and 88

COc1cc(/C=C/C(=O)N2CCC=CC2=O)cc(OC)c1OC
mRNA level (MDA-MB-468; quantitative RT-PCR, measured: DAPK1; 30 µM, 8 h; relative to: untreated cells): 62.6 ± 1.9%

Nc1ncnc2c1ncn2[C@@H]1O[C@H](CO)[C@@H](O)[C@H]1O
EC50 (HEK293, empty vector; calcium mobilization): 1.09 µM

O=C1CN(c2nc(-c3ccccc3)c3cc(Cl)ccc3n2)c2ccccc2N1
efficacy (C127 LDR GFP reporter cells; silenced GFP reporter induction, activator, high-content imaging; retest, two-run mean): 34%

Fc1cccc(F)c1-c1cnc(Cl)n1-c1ccc(OC(F)(F)F)cc1
fold increase (QBI293; ELISA, measured: acetylated alpha-tubulin; 10 µM; relative to: untreated): 2.15

C[C@]12CCCN1CC1=NNC(=O)c3cc(F)cc4[nH]c2c1c34
EC50 (MKN-45 gastric cancer cells; cell viability; concentration not given, with: with temozolomide): > 10 µM

O=C(C[C@@H](C(F)F)n1ccc(F)n1)N1CCC(O)(Cn2cnc3c(cnn3-c3ccc(F)cc3)c2=O)CC1
G1 phase cells (CHP-212 parental; PI flow cytometry; 0.1 µM, 24 h): 66.5%

C[C@H](Nc1ccc2c(c1)OCCn1cc(N3C(=O)OC[C@H]3C(F)F)nc1-2)C(N)=O
Hill coefficient GR curve (BT-483; cell growth, CellTiter-Glo; 120 h): 0.0001

O=C1CC[C@@H](C(=O)N2CSC[C@H]2C(=O)O)N1
activity score (human iPSC-derived cardiomyocytes; MyBP-C/MYH ratio, plate-normalised SD score; concentration not given, primary screen; direction not given): 3.2

CC1(C)CCC(CN2CCN(c3ccc(C(=O)NS(=O)(=O)c4ccc(NCC5CCOCC5)c([N+](=O)[O-])c4)c(Oc4cnc5[nH]ccc5c4)c3)CC2)=C(c2ccc(Cl)cc2)C1
late apoptotic cells (K562; annexin V/PI flow cytometry, measured: annexin V+/PI+; 3.2 µM, 24 h): 1.2%

CC(=O)S[C@@H]1CC2=CC(=O)CC[C@]2(C)[C@H]2CC[C@@]3(C)[C@@H](CC[C@@]34CCC(=O)O4)[C@H]12
activity score (human iPSC-derived cardiomyocytes; MyBP-C/MYH ratio, plate-normalised SD score; concentration not given, primary screen; direction not given): 5.2

CCCCN1C[C@H](O)[C@@H](O)[C@@H](O)[C@H]1CO
IC50 (sample G patient fibroblasts; Gb3 level lowering, LC-MS/MS, measured: Gb3 d18:1/24:0; 216 h): 23 µM

COc1ccc(NC(=O)c2sc3nc(-c4ccc(OC)cc4)cc(C(F)(F)F)c3c2N)cc1
efficacy (C127 LDR GFP reporter cells; silenced GFP reporter induction, activator, high-content imaging; retest, two-run mean): 122%

CC(C)[C@@H]1CC[C@@H](C)C[C@H]1O
activity score (human iPSC-derived cardiomyocytes; MyBP-C/MYH ratio, plate-normalised SD score; concentration not given, primary screen; direction not given): 12
